# Assay results from different studies.
# Numbered parts are unrelated; each lists some results of a single study. Substitutions count along the parent as printed.

# Block 1
# Target: Ras GTPase-activating protein-binding protein 1, RRM domain (G3BP1, Homo sapiens, UniProt Q13283)
# UniProt Q13283, sequence (whole entry, looked up): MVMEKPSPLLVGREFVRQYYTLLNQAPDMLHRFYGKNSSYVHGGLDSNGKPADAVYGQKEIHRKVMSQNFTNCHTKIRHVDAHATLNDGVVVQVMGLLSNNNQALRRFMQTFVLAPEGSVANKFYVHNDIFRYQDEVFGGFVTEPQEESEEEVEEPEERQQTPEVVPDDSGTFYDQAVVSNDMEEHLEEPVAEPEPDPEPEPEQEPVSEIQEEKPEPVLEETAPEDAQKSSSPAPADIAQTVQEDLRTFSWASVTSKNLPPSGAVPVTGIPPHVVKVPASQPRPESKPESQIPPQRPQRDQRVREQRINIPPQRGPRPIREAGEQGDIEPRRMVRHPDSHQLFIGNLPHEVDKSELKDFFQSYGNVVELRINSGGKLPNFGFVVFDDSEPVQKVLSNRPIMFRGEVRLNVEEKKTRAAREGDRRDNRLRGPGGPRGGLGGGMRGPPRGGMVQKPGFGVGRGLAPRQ
# Technique: RNA Bind-n-Seq
# Molecule type: RNA
# Sample: in vitro
# Concentration: 1 µM
# Setting: whole 134-nt RNA, ends assumed
# Together with: 150 mM KCl
# Relative to: input library
# Reading: higher = stronger binding
Sequence,log2 enrichment
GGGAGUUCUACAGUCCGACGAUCUGGCCCUGGUGGCAUGCGGGGAGGAAGAGGUGGCCUCAUGGAUCGUGGUGGUCCCGGUGGAAUGUUCAGAGGUGGCCGUGAUGGAGACAGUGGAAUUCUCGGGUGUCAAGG,1.42
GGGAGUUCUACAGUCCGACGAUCCCUGUGCUACACAUCGUAUGUACCGAAUCAAAUUUUUUUAAACCCCCCCAAACCCCCAAAAAAGUAUUAUGUUACGCCGUUCGGAUCUGCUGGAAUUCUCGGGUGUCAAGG,-1.14
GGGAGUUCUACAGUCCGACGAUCCCUGUGCUACACAUCGUAUGUACCGAAUCGGGGUUUUUGGGGUUUUUUUGGGGUUUGGGGAAAGUAUUAUGUUACGCCGUUCGGAUCUGCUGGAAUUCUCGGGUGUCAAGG,0.797
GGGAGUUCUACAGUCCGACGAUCCAAGUCCUGUGCUACACAUCGUAUGUACCGAAUCGGAAAAGGAAAAGGGAAAAGGAAAGUAUUAUGUUACGCCGUUCGGAUCUGCACUUCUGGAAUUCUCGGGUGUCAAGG,-0.188
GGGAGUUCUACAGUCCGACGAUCCUGUGCUACACAUCGUAUGUACCGAAUCGGGGAAAAAAAGGGAAAAAAAGGAAAAAAAGGGAAAGUAUUAUGUUACGCCGUUCGGAUCUGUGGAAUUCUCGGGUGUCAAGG,0.0344
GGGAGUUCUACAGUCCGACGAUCCACAGACAACACGCACCCAAAAAGACACAGAGGGAAGGGGUUGGGAUGGGGACAGGGUGCACAGCAGGGCGGGGUAGGACCCCAGCCCCUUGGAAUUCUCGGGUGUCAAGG,-0.171
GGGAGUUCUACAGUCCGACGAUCUAACUUUAGAGGAGGAUCUGAUGGAUAUGGCAGUGGACGUGGAUUUGGGGAUGGCUAUAAUGGGUAUGGAGGAGGACCCGGAGGUGGCAAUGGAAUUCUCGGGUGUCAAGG,-0.374
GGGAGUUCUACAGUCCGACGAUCAGUCCUGUGCUACACAUCGUAUGUACCGAAUCGGGGAAAAAGGAAAAAGGAAAAAGGGAAAGUAUUAUGUUACGCCGUUCGGAUCUGCACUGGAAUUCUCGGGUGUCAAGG,0.0127
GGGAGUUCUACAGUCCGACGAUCUAAAUUCAUCUGAAAAUGGUGAGGACAGGCACAAACGCAAAGAAAGAAAGUCAUCAAGAGGCAGAAGUCACUCAAGAUCUAGGUCUCGUGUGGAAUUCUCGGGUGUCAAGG,-0.288
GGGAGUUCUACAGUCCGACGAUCCACAGACAACACGCACCCACACAGACACAGAGGGAAGGGGUUGGGAUGGGGACAGGCUGCACAGCAGGGCGGGGUAGGACCCCAGCCCCUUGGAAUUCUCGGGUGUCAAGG,-0.0671
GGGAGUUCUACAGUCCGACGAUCCUCAAGUCCUGUGCUACACAUCGUAUGUACCGAAUCGGGGAGGGGAGGGGAGGGAAAGUAUUAUGUUACGCCGUUCGGAUCUGCACUUCCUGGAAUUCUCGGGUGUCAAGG,0.894
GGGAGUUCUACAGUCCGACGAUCCCUGUGCUACACAUCGUAUGUACCGAAUCAAAUUUUUUUAAAUUUUUUUAAAUUUUUAAAAAAGUAUUAUGUUACGCCGUUCGGAUCUGCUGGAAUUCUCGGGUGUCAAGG,-0.546
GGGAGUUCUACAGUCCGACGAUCUCCUGUGCUACACAUCGUAUGUACCGAAUCGGGGUUUUUUUGGGGUUUGGGGAAAGGGGAAAGUAUUAUGUUACGCCGUUCGGAUCUGCAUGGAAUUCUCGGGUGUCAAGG,0.624
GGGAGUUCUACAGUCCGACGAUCUCCUGUGCUACACAUCGUAUGUACCGAAUCGGGGAAAAAGGGGAAAAAAAGGGGAGGGGAAAGUAUUAUGUUACGCCGUUCGGAUCUGCAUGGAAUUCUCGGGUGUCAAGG,0.676

# Block 2
# Target: Centromere-binding protein 1, full length, N-terminal tag (CBF1, Saccharomyces cerevisiae, UniProt P17106, residues 1-351)
# UniProt P17106, sequence (whole entry, looked up): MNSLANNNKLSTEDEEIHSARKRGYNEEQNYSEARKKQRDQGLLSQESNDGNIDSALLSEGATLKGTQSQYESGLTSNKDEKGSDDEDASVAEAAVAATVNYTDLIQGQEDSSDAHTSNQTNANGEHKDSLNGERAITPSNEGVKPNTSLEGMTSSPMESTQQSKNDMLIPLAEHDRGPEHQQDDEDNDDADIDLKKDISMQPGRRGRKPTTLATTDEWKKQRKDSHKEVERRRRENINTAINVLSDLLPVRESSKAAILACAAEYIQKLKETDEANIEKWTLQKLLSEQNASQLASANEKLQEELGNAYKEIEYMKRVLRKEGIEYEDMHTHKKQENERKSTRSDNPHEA
# Technique: protein-binding microarray
# Molecule type: double-stranded DNA, one strand shown
# Sample: in vitro
# Concentration: 0.8 µM
# Setting: whole 60-bp probe, no competitor
# Reading: higher = stronger binding
Sequence,fluorescence intensity [a.u.]
CTAGTTTCGCGGCGTTACACGTGAGTTCATATTTTCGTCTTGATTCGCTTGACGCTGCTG,4210
CTAACGAGGTCGGGTAACGTGTTTGGTGTACTGTTCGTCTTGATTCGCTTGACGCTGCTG,638
GAATACGAATTTCCTGACGTGAGAAGGAAAAAATAGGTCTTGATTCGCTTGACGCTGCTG,552
CTAGCACTTCGTTAACACGTTTGGTTGTCCTTATTCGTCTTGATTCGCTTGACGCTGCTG,509
GAATTCCTTAATCATTATGTCACCTTCCTATGCTAGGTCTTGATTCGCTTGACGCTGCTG,529
TGTACGAAGCTATACCACGCGCTTATAGTAGTTAGGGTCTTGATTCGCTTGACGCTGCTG,581
GAAGCCCTAGTCAATGGCATCATGCGGGAACGTTAGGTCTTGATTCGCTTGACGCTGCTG,531
CTAGTAATCATATTTCAGTCACCTTTTTCCCTTTTCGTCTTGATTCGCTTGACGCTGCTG,496
CTAAGCAAAACTGTTGTCGTGATTTATTTAAATTTCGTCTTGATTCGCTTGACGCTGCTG,643
CCTAACTACTATATGCAGCTGATATAGCTTCGTACAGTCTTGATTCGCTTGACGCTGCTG,679
CTAGTTCATTATCTTCACGTTTTCCCTATCACATTCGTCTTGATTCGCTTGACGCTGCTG,703
CTACAATACCACCATGACGTCATTAACGTATAATTCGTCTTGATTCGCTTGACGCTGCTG,527
GAACAGACTGGAAATTCCACCACCTCTCTTCCATAGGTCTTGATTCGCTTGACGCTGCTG,523
CTAAACTAACTATATAACGTGGCATATTAAAGATTCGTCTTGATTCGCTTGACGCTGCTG,639
GAATATCGCAAAGCGGGTGAGATCAAATGCTCCTAGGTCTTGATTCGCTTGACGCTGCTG,476
GAATTCCTGAAGTTGCACGGGGAACCAAGGCCTTAGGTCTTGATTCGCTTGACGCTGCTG,534
GAACTAACAATTGTGATCATCGACTATTTGCAATAGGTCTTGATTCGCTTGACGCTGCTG,535
CTATCCTTCTTTCTGCGCGTGAATCAAAACACATTCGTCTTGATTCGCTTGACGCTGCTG,689
GAATCCTATTAACGTGGCGTAAAACAATGATATTAGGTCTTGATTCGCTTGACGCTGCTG,591
CTATCACGCCCGAATCACGTCTATTGCAGATATTTCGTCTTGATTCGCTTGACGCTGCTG,623
GAATCTAACAAAAATCATGTGAAAAATCATGTGTAGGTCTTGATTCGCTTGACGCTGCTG,958
CTATATTGGATCCCCCACGTCGCCGCGACAGGCTTCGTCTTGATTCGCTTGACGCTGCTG,465
GAACTTTTGTTCTTCCACGTTCAAATTTCTTTGTAGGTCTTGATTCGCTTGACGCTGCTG,528
GAAATCTTCATAGTGATCATGAAGTTGTGGGAATAGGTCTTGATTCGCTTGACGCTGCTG,566
TGTACGAAGCTATATCATGCACTTATAGTAGTTAGGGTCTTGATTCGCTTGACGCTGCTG,492

# Block 3
# Target: ABI1, truncated, D143A, DHFR fusion (Arabidopsis thaliana)
# Technique: DHFR PCA, deep sequencing
# Sample: yeast
# Setting: methotrexate growth selection, single substitutions
# Together with: (+)-ABA 17 µM
# Relative to: wild-type fitted maximum
# Reading: higher = stronger binding
# Parent: PYL1, truncated, DHFR fusion (Arabidopsis thaliana); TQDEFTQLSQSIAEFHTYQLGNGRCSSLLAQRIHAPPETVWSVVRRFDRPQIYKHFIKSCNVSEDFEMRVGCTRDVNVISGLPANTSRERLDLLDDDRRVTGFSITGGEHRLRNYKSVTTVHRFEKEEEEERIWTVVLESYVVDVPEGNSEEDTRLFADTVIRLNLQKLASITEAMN; partner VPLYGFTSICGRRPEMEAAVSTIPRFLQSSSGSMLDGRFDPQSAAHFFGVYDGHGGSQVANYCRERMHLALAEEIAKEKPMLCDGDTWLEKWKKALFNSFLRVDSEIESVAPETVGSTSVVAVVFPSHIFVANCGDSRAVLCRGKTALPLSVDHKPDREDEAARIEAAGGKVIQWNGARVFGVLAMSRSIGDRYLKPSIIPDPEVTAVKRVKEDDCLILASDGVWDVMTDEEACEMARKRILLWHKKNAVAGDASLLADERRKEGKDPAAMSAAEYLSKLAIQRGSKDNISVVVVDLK
Change,relative binding score [%]
T101C,76.4
S87L,4.72
R24C,71.5
A13E,86.4
G108Y,-3.34
R163S,67.4
S171H,91.3
G102F,-7.02
S63H,74.8
R45P,-3.78
R111V,4.32
F66K,70.1
N114S,38.5

# Block 4
# Target: Histone acetyltransferase KAT6A, both winged helices, GST fusion (KAT6A, Homo sapiens, UniProt Q92794, residues 1-181)
# Technique: protein binding microarray
# Molecule type: double-stranded DNA, one strand shown
# Sample: in vitro
# Concentration: not given
# Setting: 8-mer, flanks averaged, mean of 2 arrays, mostly near background
# Relative to: not given
# Reading: higher = stronger binding
# Construct (chain): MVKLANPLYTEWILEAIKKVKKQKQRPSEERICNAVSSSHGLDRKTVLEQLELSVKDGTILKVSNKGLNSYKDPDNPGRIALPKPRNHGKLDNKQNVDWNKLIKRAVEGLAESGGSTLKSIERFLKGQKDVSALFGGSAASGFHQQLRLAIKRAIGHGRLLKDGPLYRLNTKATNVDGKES
Sequence,E-score
GAGACTAA,-0.0758
CAAGCGGG,0.228
AGGCCGGA,0.0152
ACTCCCAT,-0.3
AAACCGCC,0.203
CAGAGCCG,0.133
CCTTTATC,-0.0593
CGCAGGAG,-0.0235
CTATCGCC,0.0843
GATGGTTA,-0.152
GACACCCA,-0.174
AAGCGCTT,0.304
GGTATACC,0.16
ACAAGACT,-0.213
AAGGGTCC,0.061
AATACATG,0.00904
CCAGGAGC,-0.0435
GTATATGA,0.00317
GGCCGGCC,0.304
ACGGATCA,0.152

# Block 5
# Target: CCND3, cyclin fold, Cln2 fusion (human)
# Technique: yeast growth competition, sequencing
# Sample: yeast
# Setting: weak parent motif
# Relative to: not given
# Reading: higher = stronger binding
# Parent: RBL2 docking peptide (human); STTRRRLFVENDS
Change,normalised enrichment score
F8E,0.0182
R6K,0.125
V9E,0.0532
R5T,0.221
E10I,0.0117
R4E,0.0465
V9H,0.211
R4K,0.12
L7Q,0.0989
L7H,0.111
R4W,0.104
E10F,0.16
N11P,0.12
T2D,0.0475
D12T,0.0763
T2V,0.139
D12V,0.106
E10Y,0.022
S1T,-0.0196
L7G,0.04
N11D,0.12
F8L,0.107
V9N,0.283
V9M,0.137
L7V,0.0839

# Mixed results
Molecule,target,assay,system,setting,scale,endpoint,value
"PhoQ, residues 284 288 289 292 302 303 GASLAW","PhoP, residues 12 14 15 18 19 NMSSL (Escherichia coli, UniProt P23836)","Sort-seq, item: YFP reporter",E. coli,"PhoQ-PhoP variant library, together with: 10 µM Mg2+","relative to: high Mg2+ state, higher = stronger signaling",fold induction,3.82

# Repeated from above (block 2):
Sequence,fluorescence intensity [a.u.]
CTACAATACCACCATGACGTCATTAACGTATAATTCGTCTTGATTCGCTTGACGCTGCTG,527
GAACAGACTGGAAATTCCACCACCTCTCTTCCATAGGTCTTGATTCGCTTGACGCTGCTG,523
CTAAACTAACTATATAACGTGGCATATTAAAGATTCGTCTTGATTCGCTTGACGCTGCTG,639
GAATATCGCAAAGCGGGTGAGATCAAATGCTCCTAGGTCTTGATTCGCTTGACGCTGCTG,476
GAATTCCTGAAGTTGCACGGGGAACCAAGGCCTTAGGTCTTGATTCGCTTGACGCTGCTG,534
GAACTAACAATTGTGATCATCGACTATTTGCAATAGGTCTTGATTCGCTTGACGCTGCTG,535
CTATCCTTCTTTCTGCGCGTGAATCAAAACACATTCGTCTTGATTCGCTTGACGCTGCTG,689
GAATCCTATTAACGTGGCGTAAAACAATGATATTAGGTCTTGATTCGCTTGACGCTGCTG,591
CTATCACGCCCGAATCACGTCTATTGCAGATATTTCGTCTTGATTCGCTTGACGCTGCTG,623
GAATCTAACAAAAATCATGTGAAAAATCATGTGTAGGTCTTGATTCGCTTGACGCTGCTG,958
